# Published values collected from several papers.
# Each line is one published result; not all experiments were run side by side. Several values in a cell are separate wells, animals, samples, runs or records. Numbers after ± are the reported error.
Compound,assay,test system,setting,how to read,endpoint,value
C[C@@H](O)[C@H](NC(=O)c1ccc(C#Cc2ccccc2)cc1)C(=O)NO,,octanol/buffer,pH 11,,logP,0.9
N#Cc1ccc2c(c1)[C@H]1CCCN(C(=O)c3ccc4[nH]cnc4c3)[C@H]1C2,,human females,"160 mg, end of trial",,SHBG level,31.5 nmol/L
CC(C(=O)NCC(=O)NCC(CNC(=O)CNC(=O)C(C)N1CCN(CC(=O)[O-])CCN(CC(=O)[O-])CCN(CC(=O)[O-])CC1)(CNC(=O)CNC(=O)C(C)N1CCN(CC(=O)[O-])CCN(CC(=O)[O-])CCN(CC(=O)[O-])CC1)CNC(=O)CNC(=O)C(C)N1CCN(CC(=O)[O-])CCN(CC(=O)[O-])CCN(CC(=O)[O-])CC1)N1CCN(CC(=O)[O-])CCN(CC(=O)[O-])CCN(CC(=O)[O-])CC1.[Gd+3].[Gd+3].[Gd+3].[Gd+3] (centres unmarked),ICP-MS,cynomolgus monkey,58 days,relative to: dose,cumulative urinary excretion,100%
CNC(=O)n1ccc2cc(Oc3ccnc(NC(=O)c4ccc(C5CCN(CCO)CC5)cc4)c3)c(OCCOC)cc21,,"healthy human, plasma","oral, 35 mg, fasted",,AUC(0-72 h),120 ng·h/mL
O=C(O)CCC(=O)O.[2H]C([2H])([2H])Oc1cc(C)c2[nH]ccc2c1CN1CC[C@@H](C2CC2)C[C@H]1c1ccc(C(=O)O)cc1,multiple ascending dose,healthy Chinese subjects,300 mg once daily,,subjects with proteinuria TEAE,0%
CCN1/C(=C/C(C)=O)Sc2ccc(F)cc21,,cynomolgus monkey,"oral, 10 mg/kg, 2 h post-dose",relative to: pre-dose,PR interval change,103 ± 7.1%
CCc1cc(C(=O)NC)c2nccc(N3CCc4c(cc(Cn5ccnc5)cc4-c4cn(C)nc4C(F)(F)F)C3=O)c2c1,,Sprague Dawley rats,"oral, 100 mg/kg twice daily, 7 days",relative to: vehicle,serum HCT change,-3.26%
Nc1cccc2ccc(/C=C/C(=O)c3ccccc3)cc12,,toluene,20 °C,,emission maximum,552 nm
Cc1ccc([C@@H]2O[C@H](CO)[C@@H](O)[C@H](O)[C@H]2O)cc1Cc1ccc(-c2ccc(F)cc2)s1,,human haemodialysis patients,,,longest half-life,19 h
N=C(N)NS(=O)(=O)c1ccc(N/C=C2\C(=O)Nc3ccccc32)cc1,,"octanol/buffer, 40 mM buffer",pH 11,,logP,1.72
CC(C)c1nc(N(C)S(C)(=O)=O)nc(-c2ccc(F)cc2)c1/C=C/[C@@H](O)C[C@@H](O)CC(=O)O,,"healthy human volunteers, plasma","oral, dose not given, BCRP probe substrate, added: multiple-dose momelotinib",relative to: compound alone,increase in Cmax,220%
O=C(O)CCc1cccc(O)c1O,,"human, cerebrospinal fluid","concentration not given, mean",,CSF concentration,15.9 nM
CC(C)C[C@H](NC(=O)[C@@H](Cc1c[nH]c2ccccc12)NC(=O)[C@H](Cc1ccc(O)cc1)NC(=O)[C@H](CO)NC(=O)[C@H](Cc1c[nH]c2ccccc12)NC(=O)[C@H](Cc1c[nH]cn1)NC(=O)[C@@H]1CCC(=O)N1)C(=O)N[C@@H](CCCNC(=N)N)C(=O)N1CCC[C@H]1C(=O)NCC(N)=O,,Chinese CPP girls,"intramuscular, 22.5 mg, 12 months, day 1, month 6",,"patients, drug-related Dermatitis TEAEs",0%
COc1cc(-c2nnc(SCC(N)=O)n2C)cc(OC)c1OC,,octanol/buffer,pH 11,,logP,0.25
O=c1c2ccccc2oc2ccccc12,,tricaprin-tricaprylin mixture,"45 °C, tricaprin fraction 1.00",,solubility,0.0351 mole fraction
CN(C)c1ccc2c(c1)c(=O)n(-c1ccc(C[C@H](NC(=O)c3c(Cl)cccc3Cl)C(=O)O)cc1)c(=O)n2C,,cynomolgus sandwich-cultured hepatocytes,,,scaled biliary intrinsic clearance,18.1 mL/min/kg
CN(CC#N)C(=O)C[C@H](Nc1nc2ccccc2[nH]1)c1cccc(C(F)(F)F)c1,,human,"intravenous infusion, 2 mg/kg, 10 mg/mL formulation",,steady-state volume of distribution,47 ± 18.2 L
Cc1cc(-c2nccc3c2ccn3CC(=O)Nc2ccc(-c3cnccn3)cn2)ccn1,item: Cmax,"human, plasma","oral, 20 mg once daily",relative to: day 16 over day 1,accumulation ratio,1.91
C[C@@H](Cn1ccc(-c2ccc(C#N)c(Cl)c2)n1)NC(=O)c1cc([C@@H](C)O)[nH]n1,,"human, fasted","oral, 300 mg 14C-darolutamide solution, geometric mean",,Vd/F,201000 mL
COc1ccc([C@@H](O)c2cc(-c3ncnc4cc(N5CCOCC5)ccc34)c(F)cc2Cl)nn1,,locally advanced rectal cancer patients,"100 mg, added: capecitabine and radiotherapy",,drug-related gastrointestinal AE,83%
Cc1c(-c2ccc(N3CCc4cccc(C(=O)Nc5nc6ccccc6s5)c4C3)nc2C(=O)O)cnn1CC12CC3(C)CC(C)(C1)CC(OCCNCC[C@H](O)CO)(C3)C2,,anaesthetized male beagle dog,"iv infusion, 0.1 mg/kg/min, 75 min",,plasma concentration,< 4 ng/mL
CNC(=O)c1ccc(-c2cnc3ncc(Cc4ccc5ncccc5c4)n3n2)cc1F,,cancer patients,"oral, dose not given, all grades dose escalation",,ALT increased incidence,13%
CCNCCNC(=O)c1c(C)[nH]c(/C=C2\C(=O)Nc3ccc(F)cc32)c1C,,"human, serum",50 mg maintenance dose,,serum concentration,27.7 ng/mL
C[C@H]1O[C@@H](O[C@H]2CC[C@@]3(C)[C@@H](CC[C@]4(C)[C@@H]3C=C[C@]35OC[C@@]6(CCC(C)(C)C[C@H]63)[C@@H](O)C[C@]54C)[C@]2(C)CO)[C@H](O)[C@@H](O[C@@H]2O[C@H](CO)[C@@H](O)[C@H](O)[C@H]2O)[C@H]1O,UHPLC-MS/MS,"mouse, plasma","oral, 50 mg/kg, 24 h",,plasma concentration,0 ng/mL
O=S(=O)(NCc1ccccn1)c1ccc(Cl)c(Cl)c1Cl,,octanol/buffer,"pH 11, known kinase inactives set",,logP,2.19
O=C(Nc1nc2cccc(-c3ccc(CN4CCS(=O)(=O)CC4)cc3)n2n1)C1CC1,item: body temperature increased,human rheumatoid arthritis patients,"oral, 75 mg once daily, 4 weeks, regardless of relatedness",,treatment-emergent adverse events,0%
Cc1cc(NC(=O)c2cccc(NC(=O)/C=C/CN(C)C)c2)ccc1Nc1nccc(-c2cccnc2)n1,metabolic stability,"Wistar rat, male, primary hepatocytes","1 µM, 20 min",,compound remaining,87.1%
N#Cc1ccc(C(c2ccc(C#N)cc2)n2cncn2)cc1,,"human patients, tumour extracellular fluid",12.5 mg daily,,steady-state concentration,1.42 ± 0.04 µmol/L
CC[C@@](N)(c1cnc(C(F)(F)F)c(Cl)c1)c1c2ccn(C3CC3)c(=O)c2nn1C,,"rat Sprague-Dawley male, blood","intravenous, 1 mg/kg",,"CLint,u",8.19 mL/min/kg
COc1ccc(C(O)COc2ccc(-c3csc(-c4ccc(OCC(O)c5ccc(OC)c(OC)c5)cc4)n3)cc2)cc1OC (centres unmarked),,"C57BL/6J mice, plasma","oral, 75 mg/kg",,tlast,48 h
OC[C@H]1OC(O)[C@H](O)[C@@H](O)[C@@H]1O (some centres unmarked),,aqueous solution,"15 mM, added: glucosamine",,osmolality,12 mOsmol/kg
CCOc1c([C@H](C)n2nc(C)c3c(N)ncnc32)cc(Cl)c(F)c1[C@@H]1CNC(=O)C1,item: QTcF above 500 ms,previously treated B-cell malignancy,"oral, 45 mg once daily, baseline QTcF ≤450 ms",,ECG observations,0%
COc1cccc(-c2n[nH]c(SCc3ccccn3)n2)c1OC,,"Sprague-Dawley rats, both sexes","oral dietary, 100 mg/kg/day, day 7, 3 h",,plasma concentration,4660 ng/mL
CO[C@H]1/C=C/O[C@@]2(C)Oc3c(C)c(O)c4c(O)c(c(/C=N/N5CCN(C)CC5)c(O)c4c3C2=O)NC(=O)/C(C)=C\C=C\[C@H](C)[C@H](O)[C@@H](C)[C@@H](O)[C@@H](C)[C@H](OC(C)=O)[C@@H]1C,item: vessel puncture site bruise,healthy human participants,"oral, 600 mg, added: gepotidacin 1500 mg",,adverse event incidence,0%
CCO[C@H]1CCN(Cc2c(OC)cc(C)c3[nH]ccc23)[C@H](c2ccc(C(=O)O)cc2)C1,,"human mild hepatic impairment, plasma","oral, 200 mg single dose, median",,total Tmax,1.9 h
CC(C)n1c(Nc2cccnc2)nc2cnc(Nc3ccc(N4CCN(C)CC4)cc3)nc21,item: alanine aminotransferase increased,healthy male subjects,"oral, 100 mg, study, added: gemfibrozil",,subjects with adverse event,21.4%
Cc1ccc(NS(=O)(=O)c2cc(C(=O)Nc3ccccc3C(=O)N3CCOCC3)ccc2Cl)c(C)c1,,octanol/buffer,"pH 11, known kinase inactives set",,logP,1.17
COc1ccc2c(c1)CN(C(=O)CCN1CCC(Cc3ccccc3)CC1)CC[S@@+]2[O-],telemetry,conscious dog,"intravenous, 4 mg/kg, 1 h",,heart rate,89 ± 21 beats/min
CC(=O)c1ccc([C@H]2C[C@@]3(C)[C@@H](CC[C@@]3(O)C(F)(F)C(F)(F)F)[C@@H]3CCC4=CC(=O)CCC4=C32)cc1,,"human, pooled serum","oral, 200 mg, day 1, 4 h",,serum concentration,12.4 ng/mL
O=C(Nc1ccc(OC(F)(F)Cl)cc1)c1cnc(N2CC[C@@H](O)C2)c(-c2ccn[nH]2)c1,"per laboratory record, item: ALT increase",human patients,"oral, dose not given, dose-finding study",,grade ≥2 event rate,0.7%
O=C(COc1ccccc1[N+](=O)[O-])Nc1ccccc1N1CCOCC1,,octanol/buffer,"pH 11, known kinase inactives set",,logP,3.22
C[C@@H](N)C1CCN(S(=O)(=O)c2cccc3cnccc23)CC1,,healthy volunteers,"75 mg, fasted",,participants with photophobia,0%
Cc1ccc([C@@H]2O[C@H](CO)[C@@H](O)[C@H](O)[C@H]2O)cc1Cc1ccc(-c2ccc(F)cc2)s1,,Japanese type 2 diabetes patients,"200 mg, day 16, 24 h urine collection",relative to: baseline,urinary calcium excretion change,-23.7 mg
CNC(=O)c1ccc(-c2cnc3ncc(Cc4ccc5ncccc5c4)n3n2)cc1F,,Japanese patients,"oral, 400 mg, grade 3/4",,ALT increased patients,3%
COc1ncc(-c2nc3c(n2C(C)C)[C@H](c2ccc(Cl)cc2)N(c2cc(Cl)cn(C)c2=O)C3=O)c(OC)n1,,"human patients, plasma","oral, 45 mg, low-dose arm, cycle 2 day 1",,median Tmax,2.9 h
COc1cc(Nc2ncc3c(n2)-c2ccc(Cl)cc2C(c2c(F)cccc2OC)=NC3)ccc1C(=O)O,"item: Hypotension, grade 3","cancer patients, phase 1/2","oral, dose not given, added: pembrolizumab",,patients with adverse event,4%
CN(C)C(=O)c1cc2cnc(Nc3ccc(-c4ccc5c(=O)cc(N6CCOCC6)oc5c4)cc3)nc2n1C1CCCC1.Cl,,"Balb/c mouse, plasma","intravenous, 2 mg/kg",,Vz,3 ± 0.7 L/kg
CC(C)(C(=O)N1CCOc2c(C#N)cncc2C1)C(F)F,item: phlebitis,"human, both sexes","oral, 20 mg once daily, 14 days, multiple ascending dose",,subjects with TEAE,0%
Cn1c(=O)c2[nH]cnc2n(C)c1=O,,"human, both sexes, cerebrospinal fluid","dose not given, mean",,CSF concentration,65.2 nM
C=CC(=O)Nc1cc(Nc2nccc(-c3cn(C)c4ccccc34)n2)c(OC)cc1N(C)CCN(C)C,storage stability,human dried blood spots,"5 h, -80 °C, low QC level",,recovery,90.3%
Cc1cc(NC2CCN(C(=O)OC3CCN(C(=O)/C=C/CN(C)C)C3)CC2)n2ncc(C(C)C)c2n1 (centres unmarked),"Phase I dose escalation CTCAE v4.0, item: Nausea",patients with advanced solid tumours,"dose not given, TIW dosing any grade",,patients with adverse event,36%
CC(C)c1nc(N(C)S(C)(=O)=O)nc(-c2ccc(F)cc2)c1/C=C/[C@@H](O)C[C@@H](O)CC(=O)O,,"Wistar albino rat, both sexes, plasma","oral, 20 mg/kg",,elimination rate constant,1.25e-05 s⁻¹ and 2.44e-05 s⁻¹ and 2.53e-05 s⁻¹ and 2.31e-05 s⁻¹
NC1(C(=O)N[C@@H](CCO)c2ccc(Cl)cc2)CCN(c2nc[nH]c3nccc2-3)CC1,,"human, plasma","oral, 400 mg twice daily, added: enzalutamide 160 mg daily",,dose-normalised Cmax,563 ng/mL and 447 ng/mL and 369 ng/mL and 586 ng/mL and 889 ng/mL
CCN1CCN(Cc2ccc(Nc3ncc(F)c(-c4cc(F)c5nc6n(c5c4)[C@H](C)CCC6)n3)nc2)CC1,,"human, plasma","50 mg multiple dosing, median",,Tmax,4 h
COC(=O)Nc1cc(C(=O)Nc2ccccc2)cc2ccc(C(=N)N)cc12,,octanol/buffer,"pH 11, urokinase ligand set",,logP,2.11
Cn1ncnc1[C@H]1c2n[nH]c(=O)c3cc(F)cc(c23)N[C@@H]1c1ccc(F)cc1,,"human patients, plasma","oral, 600 µg/m2, dose level DL6, median, added: temozolomide 55 mg/m2 daily days 2-6",,accumulation half-life,41.2 h

# A few entries again:
Compound,assay,test system,setting,how to read,endpoint,value
COc1ncc(-c2nc3c(n2C(C)C)[C@H](c2ccc(Cl)cc2)N(c2cc(Cl)cn(C)c2=O)C3=O)c(OC)n1,,"human patients, plasma","oral, 45 mg, low-dose arm, cycle 2 day 1",,median Tmax,2.9 h
COc1ccc2c(c1)CN(C(=O)CCN1CCC(Cc3ccccc3)CC1)CC[S@@+]2[O-],telemetry,conscious dog,"intravenous, 4 mg/kg, 1 h",,heart rate,89 ± 21 beats/min
Cc1ccc(NS(=O)(=O)c2cc(C(=O)Nc3ccccc3C(=O)N3CCOCC3)ccc2Cl)c(C)c1,,octanol/buffer,"pH 11, known kinase inactives set",,logP,1.17
CNC(=O)c1ccc(-c2cnc3ncc(Cc4ccc5ncccc5c4)n3n2)cc1F,,cancer patients,"oral, dose not given, all grades dose escalation",,ALT increased incidence,13%
CC[C@@](N)(c1cnc(C(F)(F)F)c(Cl)c1)c1c2ccn(C3CC3)c(=O)c2nn1C,,"rat Sprague-Dawley male, blood","intravenous, 1 mg/kg",,"CLint,u",8.19 mL/min/kg
O=C(O)CCC(=O)O.[2H]C([2H])([2H])Oc1cc(C)c2[nH]ccc2c1CN1CC[C@@H](C2CC2)C[C@H]1c1ccc(C(=O)O)cc1,multiple ascending dose,healthy Chinese subjects,300 mg once daily,,subjects with proteinuria TEAE,0%
O=S(=O)(NCc1ccccn1)c1ccc(Cl)c(Cl)c1Cl,,octanol/buffer,"pH 11, known kinase inactives set",,logP,2.19
